Results gathered from unrelated publications.
Each numbered part is a random draw from the data of one study; scales do not carry over between parts. Changes are numbered by the printed parent chain.

Study 1 — technique: DHFR PCA, deep sequencing; sample: yeast; added: (+)-ABA 58 µM; relative to: wild-type fitted maximum; reading: higher = stronger binding
Target: ABI1, truncated, D143A, DHFR fusion (Arabidopsis thaliana)
Notes: methotrexate growth selection, single substitutions
Parent: PYL1, truncated, DHFR fusion (Arabidopsis thaliana); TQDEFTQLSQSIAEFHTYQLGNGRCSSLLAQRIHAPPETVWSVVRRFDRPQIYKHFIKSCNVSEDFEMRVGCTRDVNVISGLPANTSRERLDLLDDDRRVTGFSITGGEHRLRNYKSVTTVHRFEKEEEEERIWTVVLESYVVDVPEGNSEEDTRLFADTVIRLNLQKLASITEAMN
Variant | relative binding score
D97W | 57.3%
S80V | -4.26%
V40Y | 2.71%
R88S | 76.9%
I79V | 89.1%
L156C | 85.2%
C72A | 89.7%
E151G | 77.2%
L166S | 4.5%
P83L | 8.01%
Q7E | 93.9%
L82W | 32.9%
N177R | 72.4%

Study 2 — technique: RNA Bind-n-Seq; form: RNA; sample: in vitro; tested at: not given; notes: RNA with constant flanks, ends assumed; relative to: input RNA pool; reading: higher = stronger binding
Target: RING finger protein unkempt homolog, zinc fingers 1-6, GST-SBP tag (UNK, Homo sapiens, UniProt Q9C0B0, residues 30-357)
Sequence of UniProt Q9C0B0 (30-357, looked up): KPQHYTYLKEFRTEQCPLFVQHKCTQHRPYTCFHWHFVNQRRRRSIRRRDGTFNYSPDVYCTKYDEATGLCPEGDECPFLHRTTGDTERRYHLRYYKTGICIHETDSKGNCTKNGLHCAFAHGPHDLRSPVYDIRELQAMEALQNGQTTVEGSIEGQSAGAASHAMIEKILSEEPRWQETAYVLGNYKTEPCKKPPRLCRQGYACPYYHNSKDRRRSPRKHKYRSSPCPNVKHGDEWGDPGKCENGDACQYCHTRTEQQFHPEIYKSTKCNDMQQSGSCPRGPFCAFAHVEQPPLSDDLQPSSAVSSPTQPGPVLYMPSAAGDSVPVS
Sequence | bound/input enrichment
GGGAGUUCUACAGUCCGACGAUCCGUAGUCUCCUGCAGCGUCUGGGGUUUCCGUUGCAGUCCUCGGAACCAGGACCUCGGCGUGGCCCCGCGAGUUAUGGCGACGAAGGCCGUGUGCGUGCUGAAGGGCGACGGCCCAGUGCACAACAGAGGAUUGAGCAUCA | 0.132 ratio
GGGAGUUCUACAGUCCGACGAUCUGAUUAUUCACUUUAGAUGCUGAUUCUUUUUUUUUUUUUUUUUUGUAUUUUUAAUGGGGGCCGCAGCUGGACCCUUGACCUUCUCAUGCCCACACCCACCCUGCCCUUCCCAUGGCUGCCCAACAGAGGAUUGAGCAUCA | 8.89 ratio
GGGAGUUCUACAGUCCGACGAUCGUAUUAAGUUCCUCUCCUGCUGAUAAAUUGGAUUCUCGAUUUAGGAAGGGAACUUUUGGUACCCGAGAUGCUGAAACAGAUGGACCUGAGAAAGGAGAUCAAAAAGGCAAGGCUUCUCCACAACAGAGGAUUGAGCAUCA | 0.213 ratio
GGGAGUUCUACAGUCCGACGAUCCCAAUUGUGGAGCAGUACUUGAAGACAAAGAAAAAUUCUAAUAAUUUAAUCAUCAAGUACAUCCGCUGCCGCCUGCUGACACUCAUCAUUAUACUGUUAGCGUGUAUCUACCUGGGCUAUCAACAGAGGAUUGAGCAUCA | 0.224 ratio
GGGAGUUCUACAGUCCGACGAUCAAGGAAAUGCUGGCUGCAAACCCUCAGGAUCGUCCAGAUGCUUUUGAACUAGAACUCAGAUCCGUACAAAUUGCAUUUAAAGAUAGCAGCUGGGAAACGUGACACAUAUUAUUUGCAAAUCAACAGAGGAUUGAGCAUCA | 0.275 ratio
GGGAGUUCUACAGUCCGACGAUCGCAUUGGCCCAAGCUGAACUUCUUAAGCGCCAGGAAGAACUAGAAAGAAAAGCCGCAGAAUCCGAUCGUCGGGAACGAGAAAUGCAAAACCUCAGUCAACAUGGUAGAAAAAAUAAUUGGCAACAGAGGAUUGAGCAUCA | 0.856 ratio
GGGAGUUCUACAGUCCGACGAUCAGCUCUCCCUGUGCUAACUGCCUGCACCUUGGACAGAGCGGGUGCGCAAAUCAGAAGGAUCCGUUGGGACCUGCCUUGGCGACCCCAUGGCAUCCCCCAGAACCGUAACUAUUGUGGCCCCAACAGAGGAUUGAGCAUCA | 0.107 ratio

Study 3 — target: CCNB2, cyclin fold, Cln2 fusion (human); technique: yeast growth competition, sequencing; sample: yeast; notes: weak parent motif; relative to: not given; reading: higher = stronger binding
Parent: CDC25A docking peptide (human); PPHRRRLLFACSP; partner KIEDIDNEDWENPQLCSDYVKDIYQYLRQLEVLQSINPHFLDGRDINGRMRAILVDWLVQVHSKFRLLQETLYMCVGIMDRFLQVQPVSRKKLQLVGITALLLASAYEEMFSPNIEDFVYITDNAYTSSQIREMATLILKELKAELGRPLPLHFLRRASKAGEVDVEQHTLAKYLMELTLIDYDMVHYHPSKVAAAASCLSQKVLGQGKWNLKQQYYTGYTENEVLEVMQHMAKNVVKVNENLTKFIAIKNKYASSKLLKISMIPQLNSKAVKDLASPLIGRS
Variant | normalised enrichment score
PPHRRRLLFWCSP [A10W] | 0.346
QPHRRRLLFACSP [P1Q] | 0.51
PPHWRRLLFACSP [R4W] | 0.333
PPHRRRLGFACSP [L8G] | 0.381
PPHRRSLLFACSP [R6S] | 0.439
PPHRRDLLFACSP [R6D] | 0.288
PPHRRRLHFACSP [L8H] | 0.514
PPHRRRLLMACSP [F9M] | 0.375
PPGRRRLLFACSP [H3G] | 0.63
PPHRRRMLFACSP [L7M] | 0.536
MPHRRRLLFACSP [P1M] | 0.355

Further values, each from its own experiment
Molecule | target | assay | system | conditions | scale | quantity | value
PhoQ, residues 284 288 289 292 302 303 SMMNNA | PhoP, residues 12 14 15 18 19 DLLYY (Escherichia coli, UniProt P23836) | Sort-seq, item: YFP reporter | E. coli | PhoQ-PhoP variant library, added: 10 µM Mg2+ | relative to: high Mg2+ state, higher = stronger signaling | fold induction | 2.19

For quick reference, copied from above (study 3):
Variant | normalised enrichment score
PPHRRSLLFACSP [R6S] | 0.439
PPHRRRLLMACSP [F9M] | 0.375
PPHRRRLGFACSP [L8G] | 0.381
